Measured values from different studies.
A part holds a random share of what one study measured. Changes are numbered by the printed parent chain.
UniProt Q5VVX9, sequence (whole entry, looked up): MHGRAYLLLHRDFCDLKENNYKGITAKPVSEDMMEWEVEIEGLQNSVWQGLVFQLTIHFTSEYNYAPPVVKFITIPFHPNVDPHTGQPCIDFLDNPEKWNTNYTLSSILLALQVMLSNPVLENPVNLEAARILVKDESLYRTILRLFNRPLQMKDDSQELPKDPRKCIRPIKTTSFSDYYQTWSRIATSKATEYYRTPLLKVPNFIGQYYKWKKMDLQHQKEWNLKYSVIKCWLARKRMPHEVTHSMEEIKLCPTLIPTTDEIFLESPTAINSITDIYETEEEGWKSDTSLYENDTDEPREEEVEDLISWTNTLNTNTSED
UniProt P51965, sequence (whole entry, looked up): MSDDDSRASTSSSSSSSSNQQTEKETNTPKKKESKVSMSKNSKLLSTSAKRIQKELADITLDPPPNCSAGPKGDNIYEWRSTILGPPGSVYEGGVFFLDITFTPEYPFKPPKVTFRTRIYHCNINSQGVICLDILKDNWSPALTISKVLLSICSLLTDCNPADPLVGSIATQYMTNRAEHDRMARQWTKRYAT
UniProt Q15819, sequence (whole entry, looked up): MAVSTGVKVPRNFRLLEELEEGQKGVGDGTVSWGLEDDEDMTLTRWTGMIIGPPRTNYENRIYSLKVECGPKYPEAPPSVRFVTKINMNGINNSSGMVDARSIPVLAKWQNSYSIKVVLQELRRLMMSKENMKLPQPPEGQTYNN
UniProt O14933, sequence (whole entry, looked up): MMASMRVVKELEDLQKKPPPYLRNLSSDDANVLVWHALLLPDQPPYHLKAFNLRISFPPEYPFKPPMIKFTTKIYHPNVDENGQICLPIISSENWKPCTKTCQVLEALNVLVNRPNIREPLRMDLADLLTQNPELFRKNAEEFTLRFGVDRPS
UniProt Q8WVN8, sequence (whole entry, looked up): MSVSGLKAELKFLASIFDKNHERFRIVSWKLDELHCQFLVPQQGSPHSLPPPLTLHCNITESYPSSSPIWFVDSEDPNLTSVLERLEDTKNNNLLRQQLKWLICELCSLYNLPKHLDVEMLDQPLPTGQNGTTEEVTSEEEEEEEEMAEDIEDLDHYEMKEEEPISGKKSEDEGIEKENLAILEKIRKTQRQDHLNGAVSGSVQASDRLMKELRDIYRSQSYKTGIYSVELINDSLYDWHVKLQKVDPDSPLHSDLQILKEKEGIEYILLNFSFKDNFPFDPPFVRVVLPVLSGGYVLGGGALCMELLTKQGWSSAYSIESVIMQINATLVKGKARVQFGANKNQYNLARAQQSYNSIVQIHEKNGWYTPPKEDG
UniProt P49427, sequence (whole entry, looked up): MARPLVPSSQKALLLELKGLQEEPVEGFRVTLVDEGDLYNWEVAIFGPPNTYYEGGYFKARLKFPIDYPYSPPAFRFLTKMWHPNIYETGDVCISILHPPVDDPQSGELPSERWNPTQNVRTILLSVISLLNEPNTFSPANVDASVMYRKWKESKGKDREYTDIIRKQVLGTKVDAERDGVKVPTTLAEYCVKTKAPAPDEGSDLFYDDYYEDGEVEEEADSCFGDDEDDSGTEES
UniProt P62256, sequence (whole entry, looked up): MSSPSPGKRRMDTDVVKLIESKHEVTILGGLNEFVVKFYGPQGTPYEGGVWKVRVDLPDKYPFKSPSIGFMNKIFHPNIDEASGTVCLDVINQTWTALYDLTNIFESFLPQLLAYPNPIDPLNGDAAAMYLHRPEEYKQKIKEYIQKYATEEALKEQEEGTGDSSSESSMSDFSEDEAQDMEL
UniProt P60604, sequence (whole entry, looked up): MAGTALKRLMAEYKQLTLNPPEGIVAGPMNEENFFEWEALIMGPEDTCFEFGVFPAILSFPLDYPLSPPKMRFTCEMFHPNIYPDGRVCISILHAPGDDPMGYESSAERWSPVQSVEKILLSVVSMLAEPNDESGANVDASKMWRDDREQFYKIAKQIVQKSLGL
UniProt Q96LR5, sequence (whole entry, looked up): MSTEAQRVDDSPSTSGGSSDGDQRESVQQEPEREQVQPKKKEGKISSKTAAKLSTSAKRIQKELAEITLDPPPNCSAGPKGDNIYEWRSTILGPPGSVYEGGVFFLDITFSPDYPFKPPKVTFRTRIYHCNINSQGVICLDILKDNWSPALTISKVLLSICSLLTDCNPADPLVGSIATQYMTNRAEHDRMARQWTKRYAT
UniProt P61088, sequence (whole entry, looked up): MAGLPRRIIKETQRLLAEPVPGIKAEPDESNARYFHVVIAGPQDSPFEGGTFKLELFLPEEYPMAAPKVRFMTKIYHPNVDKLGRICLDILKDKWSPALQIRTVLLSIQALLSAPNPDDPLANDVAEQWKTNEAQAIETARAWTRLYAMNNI
UniProt Q13404, sequence (whole entry, looked up): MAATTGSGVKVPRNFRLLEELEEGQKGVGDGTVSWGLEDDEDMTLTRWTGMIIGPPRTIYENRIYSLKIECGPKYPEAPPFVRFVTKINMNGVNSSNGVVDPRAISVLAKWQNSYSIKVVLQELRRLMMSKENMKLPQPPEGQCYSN

Series 1 — method: RNA Bind-n-Seq; form: RNA; matrix: in vitro; concentration: 365 nM; relative to: no-protein control; direction: higher = stronger binding
Target: RNA binding protein fox-1 homolog 2, RRM domain, GST-SBP tag (RBFOX2, Homo sapiens, UniProt O43251-10, residues 100-194)
Setting: natural RNA segment, single round, ends assumed
Residues (chain): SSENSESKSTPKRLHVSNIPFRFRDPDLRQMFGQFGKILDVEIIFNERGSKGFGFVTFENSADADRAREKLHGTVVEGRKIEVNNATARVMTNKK
| Strand | RBNS enrichment (R) |
| --- | --- |
| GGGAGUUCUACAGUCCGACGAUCGACUCCUGUACUAUUAACAAUCUGUAACCAAGCUAACUGUCUCAUCCAUGUGUUGAUUUCCUGUUUCCUCCUCCCCCGCCUCUUCCAGUUCAAAGGAGUCUGCAAUUGGAUGGAAUUCUCGGGUGCCAA | 1.19 |
| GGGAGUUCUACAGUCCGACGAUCUUCUCUUGUGACAUGUAUAAGUGCUGCUUACAUCACUCAACAGCAACAGAACGUGGUAGUGGAGUAGCUGUUGCCCUUCUCCGGCUGUGUGUACAGUAUGUGUGGAAUAAUGGAAUUCUCGGGUGCCAA | 0.614 |
| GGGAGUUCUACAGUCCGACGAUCUCCAUCCAUCCAUCCAUCCAUCCAUCCAUCCAUCCAUCCAUUCGUCAGCCUACAUUCAACAAACGCCUCUUGAAUGUCUAUGAUUCCCCCAGACACAUGCUGACAGACACUGGAAUUCUCGGGUGCCAA | 1.07 |
| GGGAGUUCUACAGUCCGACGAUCGCCUACCUUGAGGUCUCAUGAAAGCUCCUGGAGCUGUGUGGUUGUCUUUGGUGCUGUUAACCCUUGGCUCCAUUUGACCAUCAAUCUGAGCAAUGAGCAAAGCAAUAUCAUGGAAUUCUCGGGUGCCAA | 0.376 |
| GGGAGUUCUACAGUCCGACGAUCUGCUGUCUUGCAGUUUUACCCCUGUCCACUCUCUGCCAUCCAGAAGCAAGCGUUGGUCAGUGUUGUGUCCCAGUAGCUGGGAAGGGCACGGCUUUGCCCUGAUCUGUUCUUGGAAUUCUCGGGUGCCAA | 0.244 |
| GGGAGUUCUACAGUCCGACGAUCAUCUUUAGCCCCCUGAUCUGUCUCAACAGUCUGGGCCUCAGUGCUAGGGGCCAGAGCACCUCUAGGCUGAUUCCUCACCUUUUGGGUCUGAGGGCAGCUGCUCUCCCAGCUGGAAUUCUCGGGUGCCAA | 0.259 |
| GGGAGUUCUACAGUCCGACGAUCACUGAAAGCAAGGACACGAGAUCUAGGUGAUGACCGACGCGAAUGAAGCACCCGUGACUGCAACCCGGGCGGUUGUUGCUAGAGCCUUGCCAGUCCUUGGAAGAAGAGUUUGGAAUUCUCGGGUGCCAA | 0.995 |
| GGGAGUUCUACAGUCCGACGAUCGGGUAUGUAAAAUAUGUAUGAAGAAAAGGUGUAUAAAAAUUUGCCCUUAUGCACGGAACUGUUUCUGAGUGCCAAGCACAGAAAGCCGCUAAAUAAAAUCUUUGCAAUUGUGGAAUUCUCGGGUGCCAA | 0.604 |
| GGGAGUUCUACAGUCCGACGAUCCUACCAUAGAGACGACGCCUCGUAGACCUAAACUCAGACUGUCAGAGGAAAGACACCACAACCAACACGAAAGCAAUUCCUCAUCCUCAGAUGCUCAAAGUCCCUUUUCUUGGAAUUCUCGGGUGCCAA | 0.442 |
| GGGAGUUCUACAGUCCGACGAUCGACCUUUUUCACAGCUGAUGCUAUCAUAAUUUUGAAGGAUUUUUAAGUAAAACAGCAGUGUACAUAUGUGUGUACAGGACACCAAGACUCGCAGGCAGGCCUGAGAGCCCUGGAAUUCUCGGGUGCCAA | 0.309 |
| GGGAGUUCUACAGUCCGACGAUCAUGCCGACUCUGCUCUGUGUUAGAGAUAUGAAAUGGUGUUUGAUACUGUUUGAGACAUUAUGGAGAGAUUUAAUUAUUUGUAAUAAAAGAUUUGCUGCAGUCUGAAAACUUGGAAUUCUCGGGUGCCAA | 0.443 |
| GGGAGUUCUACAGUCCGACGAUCCAAGGCAAACUUUAUGUCCUCCUGGCAUGUUAUUGAUAACAGAGCCAGGAAGUCCAGUGUACAUUACAGAUUUUCUGGGAGAAAUAGUCCUUCCAGAGAAAGGAUUCCUUUGGAAUUCUCGGGUGCCAA | 0.294 |

Series 2 — method: DHFR PCA, deep sequencing; matrix: yeast; with: (+)-ABA 710 µM; relative to: wild-type fitted maximum; direction: higher = stronger binding
Target: ABI1, truncated, D143A, DHFR fusion (Arabidopsis thaliana)
Setting: methotrexate growth selection, single substitutions
Starting sequence: PYL1, truncated, DHFR fusion (Arabidopsis thaliana); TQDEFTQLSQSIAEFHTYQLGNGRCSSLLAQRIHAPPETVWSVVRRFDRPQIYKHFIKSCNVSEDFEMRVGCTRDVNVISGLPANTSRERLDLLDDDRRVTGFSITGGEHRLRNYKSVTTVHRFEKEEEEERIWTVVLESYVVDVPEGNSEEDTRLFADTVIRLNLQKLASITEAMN; partner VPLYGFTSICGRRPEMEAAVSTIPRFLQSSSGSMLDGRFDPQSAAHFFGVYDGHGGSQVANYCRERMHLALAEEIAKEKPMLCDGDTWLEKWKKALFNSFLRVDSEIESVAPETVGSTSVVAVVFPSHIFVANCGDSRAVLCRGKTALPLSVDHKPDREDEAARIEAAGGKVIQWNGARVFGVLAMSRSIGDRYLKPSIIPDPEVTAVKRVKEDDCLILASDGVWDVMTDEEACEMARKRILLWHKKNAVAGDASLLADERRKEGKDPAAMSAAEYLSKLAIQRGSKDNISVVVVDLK
| Substitution | relative binding score [%] |
| --- | --- |
| V40Q | -10.2 |
| V143Y | 45.3 |
| V136L | 102 |
| N177T | 101 |
| L138Q | 72.8 |
| E125F | 109 |
| L28N | 64.3 |
| G71D | 74.1 |
| G21S | 101 |
| Y18V | 97.4 |
| R74A | 1.79 |
| L164G | 93.8 |
| E129A | 112 |
| L156G | 95 |
| A84S | 83.6 |
| I12W | 80.1 |
| I162Q | 10.7 |
| D75C | 100 |
| D153Y | 13.6 |
| L138N | 35.3 |
| S150M | 83.2 |
| N22T | 101 |
| T17L | 87.7 |
| A170C | 102 |
| D95K | 83.6 |

Series 3 — method: protein-binding microarray; form: double-stranded DNA, one strand shown; matrix: in vitro; concentration: 250 nM; setting: 60-bp whole probe; with: salmon DNA 0.4 mg/ml; relative to: random background probes; direction: higher = stronger binding; constant ends, left off below: GCCTAGCAC … GTCTTGATTCGCTTGACGCTGCTG
Target: Interferon regulatory factor 5, full length, phosphomimetic (IRF5, Homo sapiens, UniProt Q13568-2, residues 1-514, K96S/S451D/S453D/S456D/S462D)
| Strand | log fluorescence [z-score] |
| --- | --- |
| TCAAAGTTCTTTTTTTCACTGTGCTAG | 1.35 |
| CATCATTGCCTGTTTTTCCCCGTGCTA | 0.556 |
| GACGCTTTCGGTTCCGGGACGTGCTAG | 9.65 |
| TCATTTATCAAATGTGGGACTGTGCTA | 0.401 |
| TACGGTATCCTTATCCTGACGTGCTAG | 0.243 |
| TAAGGTTTCCTTCTCCTTTAGTGCTAG | 0.848 |
| GACGGACTGGGACTGGGGCCGTGCTAG | -0.645 |
| TCATTTATTTTTTTTATACTGTGCTAG | 1.28 |
| TTTTTTTTATTTATAAATTAGTGCTAG | 1.6 |
| TCATATATGACAATGATACTGTGCTAG | 0.675 |
| AGATATTCAGGTATATAAAGGTGCTAG | 0.679 |
| CTAGGTATCCTTCTCCTTTAGTGCTAG | -0.0105 |
| GACGATTTCGACTATCGGGACGTGCTA | 3.97 |
| ATGAAAATCTCAATGGGTTAGTGCTAG | 0.413 |
| GACGTTTTCCTTTTCCTGACGTGCTAG | 1.47 |
| GACGGTCTCGACTTTCGGGACGTGCTA | 4.77 |
| TTAGGTTTCTACTTTCGGTTAGTGCTA | 10.5 |
| TTACGTTCCCTTTTCCTTTAGTGCTAG | 1.66 |
| TTAGGTGTCGGGTTTCGGTTAGTGCTA | 7.24 |

Series 4 — target: CCNA1, cyclin fold, Cln2 fusion (human); method: yeast growth competition, sequencing; matrix: yeast; setting: weak parent motif; relative to: not given; direction: higher = stronger binding
Starting sequence: MASTL docking peptide (human); PMIAKNLMCELDE; partner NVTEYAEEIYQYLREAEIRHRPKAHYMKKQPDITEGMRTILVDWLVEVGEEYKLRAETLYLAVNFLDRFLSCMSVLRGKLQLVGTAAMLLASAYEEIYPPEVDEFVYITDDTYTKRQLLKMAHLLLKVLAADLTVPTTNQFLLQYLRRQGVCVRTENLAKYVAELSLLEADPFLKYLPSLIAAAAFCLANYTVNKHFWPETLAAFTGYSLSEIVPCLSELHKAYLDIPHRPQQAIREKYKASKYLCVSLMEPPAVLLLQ
| Substitution | normalised enrichment score |
| --- | --- |
| N6T | 0.616 |
| D12R | 2.03e-05 |
| E10A | 0.313 |
| E10S | 0.146 |
| C9V | -0.14 |
| D12M | 0.317 |
| N6M | 0.319 |
| L11I | 0.237 |
| L7P | 0.0694 |
| D12Q | 0.293 |
| M2F | 0.236 |
| A4I | 0.0423 |
| E10V | 0.396 |
| N6Y | 0.0327 |
| L7I | 0.0119 |
| A4M | -0.215 |
| L7T | -0.38 |
| M2G | 0.222 |
| D12K | 0.0376 |
| D12A | 0.121 |
| A4F | 0.0493 |

Series 5 — Substance: STUB1 RING domain (UniProt Q9UNE7); method: yeast two-hybrid; matrix: yeast; setting: mostly zero background; relative to: not given; direction: higher = stronger interaction
UniProt Q9UNE7, sequence (whole entry, looked up): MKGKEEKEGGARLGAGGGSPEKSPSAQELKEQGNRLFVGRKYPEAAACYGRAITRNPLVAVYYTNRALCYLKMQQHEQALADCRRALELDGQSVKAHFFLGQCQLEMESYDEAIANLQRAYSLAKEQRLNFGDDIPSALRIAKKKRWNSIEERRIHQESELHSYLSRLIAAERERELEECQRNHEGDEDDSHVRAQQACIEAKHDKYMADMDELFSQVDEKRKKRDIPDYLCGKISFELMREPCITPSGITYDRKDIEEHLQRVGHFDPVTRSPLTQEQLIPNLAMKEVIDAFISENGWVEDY
| target | lacZ reporter activity |
| --- | --- |
| UBE2L6 UBC core domain (UniProt O14933) | 0 |
| UBE2E2 UBC core domain (UniProt Q96LR5) | 0 |
| UBE2Q2 UBC core domain (UniProt Q8WVN8) | 0 |
| UBE2G2 UBC core domain (UniProt P60604) | 0 |
| CDC34 UBC core domain (UniProt P49427) | 0 |
| UBE2V2 UBC core domain (UniProt Q15819) | 0 |
| UBE2U UBC core domain (UniProt Q5VVX9) | 3810 |
| UBE2H UBC core domain (UniProt P62256) | 0 |
| UBE2N UBC core domain (UniProt P61088) | 0 |
| UBE2V1 UBC core domain (UniProt Q13404) | 0 |
| UBE2E1 UBC core domain (UniProt P51965) | 0 |

Some of these lines once more (series 3):
| Strand | log fluorescence [z-score] |
| --- | --- |
| AGATATTCAGGTATATAAAGGTGCTAG | 0.679 |
| TCATTTATTTTTTTTATACTGTGCTAG | 1.28 |
| GACGGACTGGGACTGGGGCCGTGCTAG | -0.645 |
| GACGGTCTCGACTTTCGGGACGTGCTA | 4.77 |
| GACGCTTTCGGTTCCGGGACGTGCTAG | 9.65 |
| GACGTTTTCCTTTTCCTGACGTGCTAG | 1.47 |
| TCAAAGTTCTTTTTTTCACTGTGCTAG | 1.35 |
| TAAGGTTTCCTTCTCCTTTAGTGCTAG | 0.848 |
| TTACGTTCCCTTTTCCTTTAGTGCTAG | 1.66 |
| TCATTTATCAAATGTGGGACTGTGCTA | 0.401 |
